Assay results of several laboratories.
Parts stem from different laboratories: compare values within a part only.

Set 1
Target: Interferon regulatory factor 7, full length, phosphomimetic (IRF7, Homo sapiens, UniProt Q92985, residues 1-503, S101K/S471D/S472D/S475D/S476D/S477D/S483D/S484D/S487D)
UniProt Q92985, sequence (whole entry, unmodified, looked up): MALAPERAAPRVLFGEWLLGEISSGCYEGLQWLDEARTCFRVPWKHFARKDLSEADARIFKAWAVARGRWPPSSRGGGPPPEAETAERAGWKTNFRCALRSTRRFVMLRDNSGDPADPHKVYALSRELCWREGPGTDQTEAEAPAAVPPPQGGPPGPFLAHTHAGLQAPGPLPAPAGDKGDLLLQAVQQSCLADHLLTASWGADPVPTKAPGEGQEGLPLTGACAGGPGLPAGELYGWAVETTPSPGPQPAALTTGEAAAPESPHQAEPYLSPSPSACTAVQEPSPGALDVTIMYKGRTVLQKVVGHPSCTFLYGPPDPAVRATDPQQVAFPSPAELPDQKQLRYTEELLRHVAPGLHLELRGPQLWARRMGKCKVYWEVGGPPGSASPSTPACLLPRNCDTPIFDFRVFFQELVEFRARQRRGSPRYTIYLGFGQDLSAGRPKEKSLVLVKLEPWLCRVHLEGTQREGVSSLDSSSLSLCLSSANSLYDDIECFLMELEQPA
Technique: protein-binding microarray
Form: double-stranded DNA, one strand shown
Medium: in vitro
Tested at: 250 nM
Setting: 60-bp whole probe
Together with: salmon DNA 0.4 mg/ml
Baseline: random background probes
Reading: higher = stronger binding
Quantity: log fluorescence
GCCTAGCACGTAGGCTTCTATGTAGTTGAGTGCTAGGTCTTGATTCGCTTGACGCTGCTG: -0.715 z-score
GCCTAGCACTTAGGTTCCGGGTTCGGTTAGTGCTAGGTCTTGATTCGCTTGACGCTGCTG: 4.53 z-score
GCCTAGCACTCAGTCTTCCCTTTTAAACTGTGCTAGGTCTTGATTCGCTTGACGCTGCTG: 1.05 z-score

Set 2
Target: Fragile X messenger ribonucleoprotein 1, C-terminal low-complexity region (Fmr1, Mus musculus, UniProt P35922)
Technique: RNA Bind-n-Seq
Form: RNA
Medium: in vitro
Tested at: 200 nM
Setting: whole 134-nt RNA, ends assumed
Together with: 150 mM LiCl
Baseline: input library
Reading: higher = stronger binding
Quantity: log2 enrichment
Each molecule: 7-deaza-guanosine replaces G
GGGAGUUCUACAGUCCGACGAUCCUGUGCUACACAUCGUAUGUACCGAAUCGGAAAAAAAGGGAAAAAAAGGGAAAAAAAGGGGAAAGUAUUAUGUUACGCCGUUCGGAUCUGUGGAAUUCUCGGGUGUCAAGG: -0.331
GGGAGUUCUACAGUCCGACGAUCCACAGACAACACGCACCCACACAGACACAGAGGGAAGGGGUUGGGAUGGGGACAGGGUGCACAGCAGGGCGGGGUAGGACCCCACCCCCUUGGAAUUCUCGGGUGUCAAGG: -0.357
GGGAGUUCUACAGUCCGACGAUCUCCACCCCUUCUUCCUCCCUUUAACUUAUCCAUUCACUUAAAACAUUACCUGGUCAUCUGGUAAGCCCGGGACAGUAAGCCGAGUGGCUGUGGAAUUCUCGGGUGUCAAGG: 1.21
GGGAGUUCUACAGUCCGACGAUCCAAGUCCUGUGCUACACAUCGUAUGUACCGAAUCGGGGUGGGGAAAGGGGAGGGGAAAGUAUUAUGUUACGCCGUUCGGAUCUGCACUUCUGGAAUUCUCGGGUGUCAAGG: -0.298

Set 3
Target: TAR DNA-binding protein 43, full length, His tag (TARDBP, Homo sapiens, UniProt Q13148, residues 1-414)
Technique: RNA Bind-n-Seq
Form: RNA
Medium: in vitro
Tested at: 20 nM
Setting: 6-mer, flanks averaged, single round
Together with: 150 mM LiCl
Baseline: input library
Reading: higher = stronger binding
Quantity: 6-mer enrichment (R)
CGCGAU: 0.858
GCAUGG: 1.16
CCAAUC: 0.863

Further values, each from its own experiment
PhoQ, residues 284 288 289 292 302 303 SCKMEA — fold induction (PhoP, residues 12 14 15 18 19 LHSVQ (Escherichia coli, UniProt P23836); Sort-seq, refers to: YFP reporter; E. coli; PhoQ-PhoP variant library, together with: 10 µM Mg2+; baseline: high Mg2+ state, higher = stronger signaling): 19.8

Some of these lines once more (set 2):
GGGAGUUCUACAGUCCGACGAUCCAAGUCCUGUGCUACACAUCGUAUGUACCGAAUCGGGGUGGGGAAAGGGGAGGGGAAAGUAUUAUGUUACGCCGUUCGGAUCUGCACUUCUGGAAUUCUCGGGUGUCAAGG: -0.298
